Measured values collected from several papers.
Compare with care: the assays were run in different laboratories. ± gives the spread as reported.

Chains of the proteins cited; added tags and fusions are not shown.
UniProt Q9UIF9, whole entry: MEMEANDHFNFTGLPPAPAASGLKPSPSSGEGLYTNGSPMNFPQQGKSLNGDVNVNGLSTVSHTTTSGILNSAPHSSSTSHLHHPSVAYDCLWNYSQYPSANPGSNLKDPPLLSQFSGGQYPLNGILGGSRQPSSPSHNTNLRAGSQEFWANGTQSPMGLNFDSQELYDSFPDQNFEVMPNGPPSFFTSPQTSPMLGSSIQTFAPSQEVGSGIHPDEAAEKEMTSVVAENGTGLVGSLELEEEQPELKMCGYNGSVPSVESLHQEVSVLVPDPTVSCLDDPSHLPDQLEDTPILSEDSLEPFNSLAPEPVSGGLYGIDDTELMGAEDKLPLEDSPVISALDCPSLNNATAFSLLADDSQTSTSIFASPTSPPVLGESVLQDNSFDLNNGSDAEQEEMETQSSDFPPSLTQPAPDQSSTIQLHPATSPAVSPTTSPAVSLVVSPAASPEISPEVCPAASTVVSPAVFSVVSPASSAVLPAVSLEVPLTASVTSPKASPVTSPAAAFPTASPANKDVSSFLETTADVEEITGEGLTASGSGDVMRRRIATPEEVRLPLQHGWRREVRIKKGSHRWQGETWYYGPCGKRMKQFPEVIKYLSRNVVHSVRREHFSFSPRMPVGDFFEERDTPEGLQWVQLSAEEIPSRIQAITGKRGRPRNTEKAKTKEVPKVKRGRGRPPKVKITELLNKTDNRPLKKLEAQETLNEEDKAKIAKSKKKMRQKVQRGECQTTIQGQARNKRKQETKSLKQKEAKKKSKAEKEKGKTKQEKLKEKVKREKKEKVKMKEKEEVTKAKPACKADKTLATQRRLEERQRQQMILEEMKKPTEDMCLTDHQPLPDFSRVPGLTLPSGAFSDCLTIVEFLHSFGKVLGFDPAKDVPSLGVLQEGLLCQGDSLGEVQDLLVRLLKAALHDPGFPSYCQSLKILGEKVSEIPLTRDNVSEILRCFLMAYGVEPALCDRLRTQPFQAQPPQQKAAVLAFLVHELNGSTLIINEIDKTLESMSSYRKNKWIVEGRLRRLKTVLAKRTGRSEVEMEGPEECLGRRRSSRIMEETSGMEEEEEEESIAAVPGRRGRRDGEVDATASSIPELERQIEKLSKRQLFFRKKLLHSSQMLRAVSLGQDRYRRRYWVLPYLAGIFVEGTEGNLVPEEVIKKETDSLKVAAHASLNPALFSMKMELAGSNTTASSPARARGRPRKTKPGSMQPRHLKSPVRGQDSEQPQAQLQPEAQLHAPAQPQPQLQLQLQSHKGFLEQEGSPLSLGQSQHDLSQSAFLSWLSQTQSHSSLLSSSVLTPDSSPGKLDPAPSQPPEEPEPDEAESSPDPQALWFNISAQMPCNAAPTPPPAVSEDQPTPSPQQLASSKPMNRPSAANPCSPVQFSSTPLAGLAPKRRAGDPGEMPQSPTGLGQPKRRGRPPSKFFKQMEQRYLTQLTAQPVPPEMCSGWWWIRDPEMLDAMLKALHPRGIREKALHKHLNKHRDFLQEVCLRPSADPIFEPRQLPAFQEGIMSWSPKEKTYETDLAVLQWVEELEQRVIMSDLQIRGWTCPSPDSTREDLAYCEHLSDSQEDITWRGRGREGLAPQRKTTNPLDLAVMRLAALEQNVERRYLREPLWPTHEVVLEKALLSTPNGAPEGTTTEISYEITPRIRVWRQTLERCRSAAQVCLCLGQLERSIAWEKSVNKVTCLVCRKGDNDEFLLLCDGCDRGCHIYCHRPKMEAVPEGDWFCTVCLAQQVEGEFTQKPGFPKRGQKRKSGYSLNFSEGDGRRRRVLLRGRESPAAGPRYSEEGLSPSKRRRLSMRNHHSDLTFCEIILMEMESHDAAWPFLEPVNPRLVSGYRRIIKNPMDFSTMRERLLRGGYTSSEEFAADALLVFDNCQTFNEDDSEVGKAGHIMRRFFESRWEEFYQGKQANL
UniProt Q12913, whole entry, looked up: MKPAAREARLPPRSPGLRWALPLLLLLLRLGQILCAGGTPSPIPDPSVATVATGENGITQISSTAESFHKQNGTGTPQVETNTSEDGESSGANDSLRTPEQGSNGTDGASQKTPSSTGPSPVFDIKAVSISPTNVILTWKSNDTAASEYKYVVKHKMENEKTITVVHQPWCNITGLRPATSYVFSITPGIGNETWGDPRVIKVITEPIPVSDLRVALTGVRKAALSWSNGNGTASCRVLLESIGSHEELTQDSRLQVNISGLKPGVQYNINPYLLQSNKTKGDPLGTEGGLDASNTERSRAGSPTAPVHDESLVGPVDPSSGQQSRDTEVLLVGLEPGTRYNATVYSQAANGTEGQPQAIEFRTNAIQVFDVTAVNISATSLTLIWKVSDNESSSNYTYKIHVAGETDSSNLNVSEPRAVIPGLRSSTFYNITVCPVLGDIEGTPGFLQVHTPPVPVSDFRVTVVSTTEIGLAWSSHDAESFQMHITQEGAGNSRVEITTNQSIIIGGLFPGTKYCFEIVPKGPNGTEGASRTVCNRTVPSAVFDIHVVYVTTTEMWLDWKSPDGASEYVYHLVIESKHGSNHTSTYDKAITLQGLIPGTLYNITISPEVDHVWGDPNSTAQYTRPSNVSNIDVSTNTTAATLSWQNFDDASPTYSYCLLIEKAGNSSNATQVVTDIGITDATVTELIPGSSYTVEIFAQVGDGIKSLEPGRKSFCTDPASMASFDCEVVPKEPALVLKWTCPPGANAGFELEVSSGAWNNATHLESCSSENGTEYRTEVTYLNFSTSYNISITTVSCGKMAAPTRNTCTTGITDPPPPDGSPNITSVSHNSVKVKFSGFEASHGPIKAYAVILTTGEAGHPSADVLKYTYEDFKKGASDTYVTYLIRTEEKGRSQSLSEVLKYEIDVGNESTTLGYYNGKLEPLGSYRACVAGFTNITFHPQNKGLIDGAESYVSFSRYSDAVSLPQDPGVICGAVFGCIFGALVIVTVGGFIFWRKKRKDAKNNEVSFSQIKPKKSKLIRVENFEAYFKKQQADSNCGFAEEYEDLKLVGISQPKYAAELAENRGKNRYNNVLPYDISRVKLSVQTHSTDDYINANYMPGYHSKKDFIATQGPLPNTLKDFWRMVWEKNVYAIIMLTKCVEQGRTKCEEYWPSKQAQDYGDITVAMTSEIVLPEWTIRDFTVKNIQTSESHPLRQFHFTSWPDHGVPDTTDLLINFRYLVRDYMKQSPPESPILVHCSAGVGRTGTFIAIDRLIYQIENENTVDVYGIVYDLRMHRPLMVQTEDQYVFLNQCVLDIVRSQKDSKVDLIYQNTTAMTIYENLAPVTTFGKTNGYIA
UniProt Q9H2K8, whole entry: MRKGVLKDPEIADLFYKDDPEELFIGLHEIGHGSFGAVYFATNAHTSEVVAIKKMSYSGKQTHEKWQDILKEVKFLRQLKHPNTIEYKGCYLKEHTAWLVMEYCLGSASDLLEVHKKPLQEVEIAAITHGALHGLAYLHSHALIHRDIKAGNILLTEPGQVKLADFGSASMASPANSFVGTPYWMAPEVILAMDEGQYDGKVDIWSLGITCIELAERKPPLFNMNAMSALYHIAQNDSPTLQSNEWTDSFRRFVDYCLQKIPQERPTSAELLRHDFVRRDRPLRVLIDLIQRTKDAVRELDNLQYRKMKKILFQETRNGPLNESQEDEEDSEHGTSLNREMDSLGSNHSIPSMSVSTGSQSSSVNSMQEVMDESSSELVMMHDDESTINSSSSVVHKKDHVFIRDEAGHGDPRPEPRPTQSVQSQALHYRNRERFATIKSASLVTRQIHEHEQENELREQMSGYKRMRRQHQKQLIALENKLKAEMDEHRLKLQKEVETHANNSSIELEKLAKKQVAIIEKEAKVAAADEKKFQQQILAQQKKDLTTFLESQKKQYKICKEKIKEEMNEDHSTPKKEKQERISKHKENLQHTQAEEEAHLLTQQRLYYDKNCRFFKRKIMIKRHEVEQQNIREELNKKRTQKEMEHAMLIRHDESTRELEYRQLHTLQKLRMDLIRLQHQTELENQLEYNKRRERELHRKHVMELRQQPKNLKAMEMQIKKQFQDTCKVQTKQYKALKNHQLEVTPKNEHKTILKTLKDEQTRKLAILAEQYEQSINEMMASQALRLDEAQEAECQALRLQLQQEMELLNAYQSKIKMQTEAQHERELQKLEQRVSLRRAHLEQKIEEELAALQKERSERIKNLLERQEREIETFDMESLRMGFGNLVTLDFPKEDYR
UniProt Q9NSY1, whole entry: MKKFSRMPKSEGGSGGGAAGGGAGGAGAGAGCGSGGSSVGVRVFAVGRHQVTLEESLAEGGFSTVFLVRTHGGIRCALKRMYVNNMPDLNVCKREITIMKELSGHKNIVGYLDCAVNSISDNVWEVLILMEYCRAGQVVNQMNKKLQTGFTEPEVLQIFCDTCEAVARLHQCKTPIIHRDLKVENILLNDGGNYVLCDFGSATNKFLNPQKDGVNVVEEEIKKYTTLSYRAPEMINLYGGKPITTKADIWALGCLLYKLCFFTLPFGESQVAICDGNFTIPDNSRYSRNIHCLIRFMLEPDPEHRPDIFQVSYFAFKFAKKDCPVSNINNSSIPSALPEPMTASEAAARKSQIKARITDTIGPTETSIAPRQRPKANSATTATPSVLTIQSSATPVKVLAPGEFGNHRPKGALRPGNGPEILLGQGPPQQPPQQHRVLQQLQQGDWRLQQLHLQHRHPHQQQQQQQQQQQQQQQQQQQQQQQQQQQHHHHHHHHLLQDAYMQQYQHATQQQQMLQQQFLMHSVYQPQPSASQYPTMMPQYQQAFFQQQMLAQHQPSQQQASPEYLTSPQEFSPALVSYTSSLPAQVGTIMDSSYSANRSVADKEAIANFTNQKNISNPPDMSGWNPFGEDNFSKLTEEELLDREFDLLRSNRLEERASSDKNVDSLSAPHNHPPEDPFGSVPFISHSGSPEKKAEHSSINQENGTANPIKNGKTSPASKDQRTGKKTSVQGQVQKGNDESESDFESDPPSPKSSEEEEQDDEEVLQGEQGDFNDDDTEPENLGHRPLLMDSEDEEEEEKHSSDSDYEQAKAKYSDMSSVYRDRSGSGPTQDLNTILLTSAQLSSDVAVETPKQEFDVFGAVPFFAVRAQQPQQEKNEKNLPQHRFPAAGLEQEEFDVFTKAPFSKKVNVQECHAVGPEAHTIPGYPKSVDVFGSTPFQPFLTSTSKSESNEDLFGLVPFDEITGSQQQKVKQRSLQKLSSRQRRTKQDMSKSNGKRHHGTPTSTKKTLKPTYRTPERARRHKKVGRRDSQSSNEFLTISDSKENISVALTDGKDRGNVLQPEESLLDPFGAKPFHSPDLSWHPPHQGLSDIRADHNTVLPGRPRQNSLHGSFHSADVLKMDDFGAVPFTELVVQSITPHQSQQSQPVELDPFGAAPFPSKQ

SMILES	target or system	assay	system	conditions	scale	quantity	result
C[C@H]1CCCN1Cc1cc2cnc(NC(=O)c3ccc4c(cnn4C)c3)cc2[nH]1	–	–	mouse, MLL-ENL sample B xenograft, bone marrow and spleen	oral, 200 mg/kg once daily, 4 weeks	relative to: vehicle	leukaemia burden	decreased
CC[C@@H]1C(=O)N(C)c2cnc(Nc3ccc(C(=O)NC4CCN(C)CC4)cc3OC)nc2N1C1CCCC1	BAZ2A (Homo sapiens, UniProt Q9UIF9)	–	–	10 µM	–	delta Tm	0.12 ± 0.22 °C
Cc1ccc([C@H](CC(=O)O)NC(=O)Nc2c(O)c(C)cn(Cc3ccccc3Cl)c2=O)cc1	–	item: hCD45+ hCD19+	LAX7R xenograft, NSG mouse, spleen	60 mg/kg, 36 h	–	B-ALL cells	no effect
Nc1ccc([N+](=O)[O-])cc1-c1nc2cc(Cl)ccc2n(Cc2ccccc2)c1=O	–	–	mouse loperamide-induced constipation	–	–	laxative efficacy	no effect
O=C(/C=C/c1nc2ccccc2[nH]1)c1c(-c2ccccc2)c2cc(Cl)ccc2[nH]c1=O	–	–	nude mouse, UACC-903 xenograft	oral gavage, 100 mg/kg, 3 times weekly	relative to: vehicle	tumour size reduction	> 2 fold
O=C1C=C(NCCc2cc(Br)c(O)c(Br)c2)C(=O)c2ncccc21	–	–	BALB/c mice, K7M2 lung metastasis, lung	dose not given	–	metastatic foci number	decreased
O=C(Nc1cccnn1)N1CC(Oc2ccc(-c3ccccc3F)cn2)C1	–	item: plasma endocannabinoid trough levels	human, plasma	oral, repeated daily dosing, sustained to day 8	–	time to steady state	2 to 3 days
Cc1c(O)cc2c(c1C)O[C@](C)(CCCC(C)C)CC2	–	item: MDM2, IKKα	athymic nude mouse, PC-3-luc xenograft, tumour	intraperitoneal, 50 mg/kg daily, 21 days	–	phosphorylation	decreased
COc1cc(CC(=O)NCC(NC(=O)C(CCCNC(=O)c2cccc(I)c2)NC(=O)C(Cc2ccc(C(F)(F)P(=O)(O)O)cc2)NC(=O)c2ccc(C)c(Br)c2)C(N)=O)ccc1O (stereo not shown)	PTPRJ (Homo sapiens, UniProt Q12913)	enzyme activity	–	10 µM	–	inhibition	no inhibition
Cc1cccc(NC(=O)c2nn(Cc3cnc[nH]3)c3c2CN(C(=O)c2ccc[nH]2)CC3)c1	human IDH1 R132H AML cells	granulocytic differentiation, flow cytometry	–	3 µM, 6 to 7 days	relative to: DMSO	fold change CD15+ cells	1.2 ± 0.3 fold
CCCCCCCCCCCCCC=C[C@@H](O)[C@H](CO[C@@H]1O[C@H](CO)[C@@H](O[C@@H]2O[C@H](CO)[C@H](O)[C@H](O[C@]3(C(=O)O)C[C@H](O)[C@@H](NC(C)=O)[C@H]([C@H](O)[C@@H](CO)O[C@]4(C(=O)O)C[C@H](O)[C@@H](NC(C)=O)[C@H]([C@H](O)[C@H](O)CO)O4)O3)[C@H]2O)[C@H](O)[C@H]1O)NC(=O)CCCCCCCCCCCCCCCCC	–	item: IFN-γ	C57BL/6 mouse, serum	intravenous, with: α-GalCer 1 µg	–	half-maximal inhibitory dose	0.3 µg
Nc1c(C(=O)Nc2c(F)cc(F)cc2Br)sc2nc3c(cc12)CCC3	–	–	nude mice, H1299 xenograft, tumour tissue	10 mg/kg/day	–	copper accumulation	~20%
COc1ccc(OC[C@H]2c3cccn3CC(=O)N2Cc2cccc(F)c2)cc1	–	–	CA1 stratum radiatum interneurons, mouse, hippocampal slice	10 µM	relative to: baseline	NMDAR EPSC increase	~50%
CCN1CCN(Cc2ccc(NC(=O)c3ccc(C)c(Oc4ncnc5cc(OC)c(OC)cc45)c3)cc2C(F)(F)F)CC1	TAOK3 (Homo sapiens, UniProt Q9H2K8)	KINOMEscan competition binding	–	1.0 µM	–	residual probe binding	0.3%
Fc1cccc(-n2cnc3c(NCc4nc5cc(Cl)ccc5[nH]4)nc(N4CCNCC4)nc32)c1	BMP2K (Homo sapiens, UniProt Q9NSY1)	KINOMEscan competition binding	–	10 µM	relative to: control	remaining binding	68%
COc1cccc(Cc2c(C)c(C)nn(CC(=O)Nc3ccc(Br)cc3)c2=O)c1	–	paw pressure test	rat, CFA-induced arthritis	oral, 30 mg/kg, day 14, 30 to 60 min	–	pain threshold	53.5 ± 2.3 g
